Published values gathered from unrelated publications.
Protocols differ between the studies behind these lines. ± gives the spread as reported.
Genome polyprotein 3C protease: Genome polyprotein, 3C protease (rhinovirus B14, UniProt P03303)
Chain of UniProt P03303 (whole entry, looked up): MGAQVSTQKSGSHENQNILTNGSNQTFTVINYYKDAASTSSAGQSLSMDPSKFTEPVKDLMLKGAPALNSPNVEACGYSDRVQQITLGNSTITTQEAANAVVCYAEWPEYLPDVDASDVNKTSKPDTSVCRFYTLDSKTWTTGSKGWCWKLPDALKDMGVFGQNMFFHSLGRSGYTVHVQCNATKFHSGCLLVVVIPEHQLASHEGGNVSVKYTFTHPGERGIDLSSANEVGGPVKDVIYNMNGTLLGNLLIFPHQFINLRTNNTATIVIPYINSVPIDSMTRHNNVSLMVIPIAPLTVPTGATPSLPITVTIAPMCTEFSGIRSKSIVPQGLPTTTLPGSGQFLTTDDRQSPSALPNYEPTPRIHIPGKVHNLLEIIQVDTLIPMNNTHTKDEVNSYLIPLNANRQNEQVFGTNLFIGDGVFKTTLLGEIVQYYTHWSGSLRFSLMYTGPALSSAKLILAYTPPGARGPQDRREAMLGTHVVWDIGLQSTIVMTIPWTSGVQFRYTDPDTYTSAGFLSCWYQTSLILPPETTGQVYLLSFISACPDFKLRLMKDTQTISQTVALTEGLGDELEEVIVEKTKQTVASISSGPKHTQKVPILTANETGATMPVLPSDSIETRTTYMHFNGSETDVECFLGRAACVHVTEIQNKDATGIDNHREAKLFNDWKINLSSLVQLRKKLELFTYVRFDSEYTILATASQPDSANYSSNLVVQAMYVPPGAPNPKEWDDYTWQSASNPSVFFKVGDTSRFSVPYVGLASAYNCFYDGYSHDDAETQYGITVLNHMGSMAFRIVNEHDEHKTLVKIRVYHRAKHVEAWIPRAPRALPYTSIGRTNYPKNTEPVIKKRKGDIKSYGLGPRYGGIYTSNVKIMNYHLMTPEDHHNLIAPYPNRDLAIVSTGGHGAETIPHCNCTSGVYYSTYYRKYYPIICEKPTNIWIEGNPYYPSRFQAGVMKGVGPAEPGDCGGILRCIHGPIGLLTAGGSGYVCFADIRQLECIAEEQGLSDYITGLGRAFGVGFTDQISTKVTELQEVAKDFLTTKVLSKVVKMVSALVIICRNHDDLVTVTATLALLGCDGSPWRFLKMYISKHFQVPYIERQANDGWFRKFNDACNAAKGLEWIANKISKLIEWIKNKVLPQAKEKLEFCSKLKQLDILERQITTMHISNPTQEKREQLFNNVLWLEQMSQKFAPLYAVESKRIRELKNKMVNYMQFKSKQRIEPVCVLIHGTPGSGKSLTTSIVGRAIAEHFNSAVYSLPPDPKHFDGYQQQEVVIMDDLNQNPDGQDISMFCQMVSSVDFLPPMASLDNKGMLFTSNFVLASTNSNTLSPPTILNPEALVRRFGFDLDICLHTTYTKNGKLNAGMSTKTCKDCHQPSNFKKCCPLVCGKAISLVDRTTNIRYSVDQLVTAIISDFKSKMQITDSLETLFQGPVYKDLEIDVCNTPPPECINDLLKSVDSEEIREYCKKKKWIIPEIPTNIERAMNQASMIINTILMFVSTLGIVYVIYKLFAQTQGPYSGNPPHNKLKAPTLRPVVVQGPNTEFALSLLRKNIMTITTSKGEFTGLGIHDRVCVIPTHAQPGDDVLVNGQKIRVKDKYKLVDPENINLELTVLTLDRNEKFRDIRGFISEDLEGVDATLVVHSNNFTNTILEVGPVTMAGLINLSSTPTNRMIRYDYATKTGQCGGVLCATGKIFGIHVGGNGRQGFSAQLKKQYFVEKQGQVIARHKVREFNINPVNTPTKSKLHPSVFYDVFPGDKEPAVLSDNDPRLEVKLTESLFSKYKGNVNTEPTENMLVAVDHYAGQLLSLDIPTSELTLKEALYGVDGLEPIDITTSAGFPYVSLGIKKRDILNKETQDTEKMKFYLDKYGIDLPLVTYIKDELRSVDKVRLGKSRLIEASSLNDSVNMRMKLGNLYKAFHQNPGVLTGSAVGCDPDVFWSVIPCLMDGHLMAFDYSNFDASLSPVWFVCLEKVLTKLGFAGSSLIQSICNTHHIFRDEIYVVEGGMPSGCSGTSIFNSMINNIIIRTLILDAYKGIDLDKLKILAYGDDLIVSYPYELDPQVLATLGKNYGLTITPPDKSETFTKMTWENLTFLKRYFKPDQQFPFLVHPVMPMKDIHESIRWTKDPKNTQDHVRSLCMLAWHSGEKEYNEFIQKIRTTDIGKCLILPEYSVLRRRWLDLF
MMP14: Matrix metalloproteinase-14 (MMP14, Homo sapiens, UniProt P50281)
agrC: Receptor-histidine kinase AgrC (agrC, Staphylococcus aureus, UniProt O07911)
SLC6A2: Sodium-dependent noradrenaline transporter (SLC6A2, Homo sapiens, UniProt P23975)
Chain of UniProt P23975 (whole entry, looked up): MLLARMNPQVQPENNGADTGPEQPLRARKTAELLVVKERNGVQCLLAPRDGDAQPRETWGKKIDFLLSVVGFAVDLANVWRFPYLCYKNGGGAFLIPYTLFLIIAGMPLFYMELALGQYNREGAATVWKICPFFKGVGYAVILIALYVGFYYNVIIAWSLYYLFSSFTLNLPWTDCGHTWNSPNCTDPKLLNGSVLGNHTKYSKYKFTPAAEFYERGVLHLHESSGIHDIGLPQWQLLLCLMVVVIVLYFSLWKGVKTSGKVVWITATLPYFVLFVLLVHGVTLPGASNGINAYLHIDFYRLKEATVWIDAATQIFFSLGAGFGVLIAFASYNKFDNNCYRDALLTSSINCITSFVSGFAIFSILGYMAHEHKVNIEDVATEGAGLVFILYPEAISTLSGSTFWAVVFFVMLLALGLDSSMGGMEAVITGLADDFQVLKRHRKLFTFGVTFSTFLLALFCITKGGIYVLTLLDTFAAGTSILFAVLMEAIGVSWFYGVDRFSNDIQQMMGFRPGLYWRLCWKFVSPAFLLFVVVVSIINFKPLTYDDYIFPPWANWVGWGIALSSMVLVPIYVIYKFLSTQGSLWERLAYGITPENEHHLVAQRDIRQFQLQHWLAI
Chain of UniProt Q15858 (whole entry, looked up): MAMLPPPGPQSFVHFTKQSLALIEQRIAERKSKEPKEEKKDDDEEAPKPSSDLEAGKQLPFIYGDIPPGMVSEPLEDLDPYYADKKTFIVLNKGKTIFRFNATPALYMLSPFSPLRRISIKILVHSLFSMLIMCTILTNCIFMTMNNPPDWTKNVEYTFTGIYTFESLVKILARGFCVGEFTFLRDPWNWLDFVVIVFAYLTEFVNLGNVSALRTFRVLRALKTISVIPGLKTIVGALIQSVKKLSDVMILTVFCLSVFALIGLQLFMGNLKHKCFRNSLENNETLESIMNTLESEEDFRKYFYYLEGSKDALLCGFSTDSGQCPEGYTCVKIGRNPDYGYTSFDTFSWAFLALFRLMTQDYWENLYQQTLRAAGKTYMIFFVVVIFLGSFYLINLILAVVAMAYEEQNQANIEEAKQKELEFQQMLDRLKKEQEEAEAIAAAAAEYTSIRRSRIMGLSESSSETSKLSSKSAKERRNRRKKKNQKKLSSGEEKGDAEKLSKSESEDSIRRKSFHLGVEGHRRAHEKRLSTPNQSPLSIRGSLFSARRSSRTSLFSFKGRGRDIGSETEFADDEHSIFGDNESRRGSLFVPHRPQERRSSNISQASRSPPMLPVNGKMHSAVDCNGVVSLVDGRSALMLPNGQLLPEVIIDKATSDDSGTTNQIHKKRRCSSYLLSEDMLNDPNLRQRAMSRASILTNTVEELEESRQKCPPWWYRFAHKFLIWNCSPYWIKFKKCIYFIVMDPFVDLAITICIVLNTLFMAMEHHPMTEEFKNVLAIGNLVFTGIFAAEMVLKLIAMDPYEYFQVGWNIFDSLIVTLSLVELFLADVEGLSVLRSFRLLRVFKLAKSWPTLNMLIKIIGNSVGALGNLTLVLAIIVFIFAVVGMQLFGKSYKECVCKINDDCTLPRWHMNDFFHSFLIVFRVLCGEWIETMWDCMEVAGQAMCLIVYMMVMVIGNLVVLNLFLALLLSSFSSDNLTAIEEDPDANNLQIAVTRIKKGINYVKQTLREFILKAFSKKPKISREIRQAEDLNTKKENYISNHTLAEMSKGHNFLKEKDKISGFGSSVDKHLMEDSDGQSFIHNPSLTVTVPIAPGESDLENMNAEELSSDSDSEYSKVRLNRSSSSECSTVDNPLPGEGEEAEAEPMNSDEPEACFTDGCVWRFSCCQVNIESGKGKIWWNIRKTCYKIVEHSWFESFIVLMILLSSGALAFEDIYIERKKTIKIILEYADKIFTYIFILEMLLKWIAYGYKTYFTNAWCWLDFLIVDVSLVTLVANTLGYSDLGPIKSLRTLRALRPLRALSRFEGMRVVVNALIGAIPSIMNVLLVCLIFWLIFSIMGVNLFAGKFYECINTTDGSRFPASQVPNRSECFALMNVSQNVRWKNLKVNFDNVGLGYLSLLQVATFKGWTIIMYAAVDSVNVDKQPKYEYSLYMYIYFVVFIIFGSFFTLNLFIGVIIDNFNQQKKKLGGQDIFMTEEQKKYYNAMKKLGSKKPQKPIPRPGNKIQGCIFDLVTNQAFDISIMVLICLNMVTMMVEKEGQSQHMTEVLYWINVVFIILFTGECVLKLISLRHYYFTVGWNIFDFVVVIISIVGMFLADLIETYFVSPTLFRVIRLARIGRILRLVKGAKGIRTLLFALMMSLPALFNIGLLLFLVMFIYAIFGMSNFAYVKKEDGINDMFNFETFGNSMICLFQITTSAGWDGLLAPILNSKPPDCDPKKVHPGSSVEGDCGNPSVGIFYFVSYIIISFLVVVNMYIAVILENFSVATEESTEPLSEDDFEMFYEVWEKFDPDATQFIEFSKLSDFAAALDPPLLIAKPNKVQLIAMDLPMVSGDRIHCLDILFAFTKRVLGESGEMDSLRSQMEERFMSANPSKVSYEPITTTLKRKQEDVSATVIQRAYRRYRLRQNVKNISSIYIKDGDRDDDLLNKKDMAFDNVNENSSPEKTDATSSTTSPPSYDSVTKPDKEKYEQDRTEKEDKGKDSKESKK
Chain of UniProt Q04828 (whole entry, looked up): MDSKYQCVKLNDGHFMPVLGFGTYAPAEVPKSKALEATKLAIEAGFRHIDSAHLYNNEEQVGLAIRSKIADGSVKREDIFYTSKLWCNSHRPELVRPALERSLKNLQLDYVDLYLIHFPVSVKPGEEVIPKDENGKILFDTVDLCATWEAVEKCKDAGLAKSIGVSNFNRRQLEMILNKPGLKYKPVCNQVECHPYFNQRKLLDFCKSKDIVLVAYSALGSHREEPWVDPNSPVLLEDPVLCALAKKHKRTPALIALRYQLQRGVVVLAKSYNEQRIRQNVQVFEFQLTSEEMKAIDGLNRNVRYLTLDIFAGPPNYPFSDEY

Structure (SMILES) | target | assay | system | setting | IC50 [µM]
C=CCn1c(C)cc(C(=O)COn2nnc3ccc(S(=O)(=O)N(C)C)cc32)c1C | Genome polyprotein 3C protease | 3C protease activity, SAMDI-MS | human rhinovirus | – | > 100
Nc1ncnc2c1ncn2[C@@H]1O[C@H](CSCCNC(=O)NCCc2ccccc2)[C@@H](O)[C@H]1O | Histone-arginine methyltransferase CARM1 (CARM1, Homo sapiens, UniProt Q86X55) | enzyme activity, inhibitor, radiometric | – | – | 10
Nc1ccccc1C(=O)OCN1C(=O)c2ccccc2S1(=O)=O | Chymotrypsinogen A (Bos taurus, UniProt P00766) | enzyme activity, inhibitor | – | 25 °C, 30 min preincubation, together with: Suc-AAPF-pNA | 54
NC(=O)CN(CC(=O)O)CC(=O)O | IMP-28 metallo-beta-lactamase | enzyme activity, inhibitor, FC5 fluorescent substrate | – | 60 pM enzyme, 1 µM ZnSO4 | > 200
O=C(NCCN1CCC2(CC1)C(=O)NCN2Cc1ccccn1)c1ccc2ccccc2c1 | Phospholipase D1 (Homo sapiens, UniProt Q13393) | enzyme activity, inhibitor | – | – | 2.65
O=C(CS)NCCCCCNC(=O)c1ccccc1 | Histone deacetylase 2 (HDAC2, Homo sapiens, UniProt Q92769) | enzyme activity, inhibitor | – | – | 18.8
C[C@@]12CC[C@@H]3c4cc(Cl)c(O)c(Cl)c4CC[C@H]3[C@@H]1CCC2=O | Aldo-keto reductase family 1 member C1 (AKR1C1, Homo sapiens, UniProt Q04828) | enzyme activity, inhibitor, absorbance | – | pH 9 | 2.8
NC(Cc1cc(O)c(O)cc1O)C(=O)O (racemic) | mRNA cap guanine-N(7) methyltransferase, with RAM (RNMT, Homo sapiens, UniProt O43148) | enzyme activity, inhibitor | – | – | 3.17 ± 0.44
NC(=S)N/N=C/c1ccc(OCc2cccc(F)c2)cc1 | Amine oxidase [flavin-containing] B (MAOB, Homo sapiens, UniProt P27338) | enzyme activity, inhibitor, absorbance | – | – | 0.11
C1CCc2c(c(N3CCOCC3)nc3sc4c(N5CCOCC5)nnnc4c23)C1 | Beta-glucuronidase (Streptococcus agalactiae serotype V, UniProt Q8E0N2) | – | Streptococcus agalactiae | – | > 100
CCCCCCCCCCCCCCCc1ccc(COP(O)(O)=S)cc1 | Autotaxin (ENPP2, Homo sapiens, UniProt Q13822) | enzyme activity, inhibitor | – | together with: FS-3 1 µM | 1.54
c1cc2c(s1)CCOC21CCN(Cc2ccc3c(c2)OCCO3)CC1 | Cytochrome P450 3A4 (CYP3A4, Homo sapiens, UniProt P08684) | enzyme activity, inhibitor | – | together with: VG substrate | 26
CC(=O)N[C@@H](CC(C)C)C(=O)N[C@@H](CCC(=O)O)C(=O)N[C@@H](CO)C(=O)N[C@@H](CC(=O)O)C(=O)CCl | Caspase-3 (CASP3, Homo sapiens, UniProt P42574) | enzyme activity, inhibitor, fluorescence | – | – | 54
CC(C)C[C@@H]1NC(=O)[C@H](CCCNC(=N)N)NC(=O)[C@H](CCCCN)NC(=O)[C@H](CC(=O)O)NC(=O)[C@H](CCCCN)NC(=O)[C@@H](CO)NC1=O | MMP14 | enzyme activity, inhibitor, fluorescence | – | – | > 10
O=C(/C=C/c1ccc(F)cc1)c1ccc(N2CCNCC2)cc1 | Beta-secretase 1 (BACE1, Homo sapiens, UniProt P56817) | enzyme activity, inhibitor, fluorescence | – | with preincubation | 14.9
COC(=O)C=CCCC(NC(=O)c1ccncc1C(=O)O)C(=O)NC(C(=O)N1CC(=O)CC1C(=O)NC(C(=O)NC(C(N)=O)C1CCCCC1)C1CCCCC1)C(C)(C)C (centres unmarked) | Coagulation factor XIII A chain (Rat, UniProt O08619) | isopeptidase activity, inhibitor | – | rat enzyme, together with: substrate A101 | 0.008 ± 0.0001
Cn1nnc(-c2ccccc2NC(=O)CCS)n1 | Metallo-beta-lactamase VIM-2 (VIM-2, Escherichia coli, UniProt Q5U7L7) | enzyme activity, inhibitor, fluorescence | – | with preincubation | 0.0257
CC(C)CC(O)(CC(C)C)c1cn(C(=O)N2CCCC2)nn1 | Acylamino-acid-releasing enzyme (Apeh, Mus musculus, UniProt Q8R146) | inhibitor, competitive ABPP | mouse T-cell proteome | 30 min, 37 °C | 0.005
Cn1c(C(=O)NCCN2CCC3(CC2)C(=O)NCN3Cc2cccnc2)cc2ccccc21 | Phospholipase D2 (Homo sapiens, UniProt O14939) | enzyme activity, inhibitor | – | – | > 20

Structure (SMILES) | target | assay | system | setting | IC50 [µM]
CC(=O)N[C@@H](CCCCN)C(=O)N[C@@H](CCCCN)C(=O)N[C@@H](C)C(=O)N[C@H](C(=O)N[C@@H](CCC(N)=O)C(=O)N[C@@H](C)C(=O)N[C@@H](CO)C(=O)N[C@@H](CCC(N)=O)C(=O)N[C@@H](CCC(=O)O)C(=O)N[C@@H](Cc1ccc(O)cc1)C(=O)O)[C@@H](C)O | Mediator of DNA damage checkpoint protein 1 (Homo sapiens, UniProt Q14676) | photo-cross-linking, competitor, photo-cross-linking competition | – | together with: photo-cross-linking probe peptide | > 300
NC[C@@H]1[C@@H](O)[C@@H](O)[C@H]2[C@H](O)CCN21 | Alpha-mannosidase 2 (Homo sapiens, UniProt Q16706) | enzyme activity, inhibitor, 4-MU fluorogenic | – | together with: Man-α-4MU 5 mM | > 200
CC[C@H](C)[C@H](N)C(=O)N[C@@H](CC(N)=O)C(=O)N[C@H]1CSC(=O)[C@H](CC(C)C)NC(=O)[C@H](CC(C)C)NC(=O)[C@H](Cc2ccccc2)NC(=O)[C@H](CC(N)=O)NC1=O | agrC | – | – | – | 0.00117
O=C1NC(=O)C(=Cc2ccc(-c3ccc(Br)cc3)o2)S1 | Serine/threonine-protein kinase B-raf (BRAF, Homo sapiens, UniProt P15056) | enzyme activity, inhibitor, ELISA | – | – | 4.99
CC[C@H](C)[C@H](NC(=O)[C@@H](N)Cc1ccc(O)cc1)C(=O)N[C@@H](Cc1ccccc1)C(=O)N[C@@H](CC(N)=O)C(=O)N[C@@H](CC(C)C)C(=O)O | Kappa-type opioid receptor (OPRK1, Homo sapiens, UniProt P41145) | [3H]EKC binding displacement, whole-cell radioligand binding | T47D | together with: DADLE | 5.41e-05 ± 5.7e-17
O=C(Nc1ccccc1)c1ccccc1O | Histone deacetylase 4 (HDAC4, Homo sapiens, UniProt P56524) | enzyme activity, inhibitor, fluorescence | – | – | > 10
CC(C)C[C@H](NC(=O)[C@H](CC(N)=O)NC(=O)[C@H](CCCNC(=N)N)NC(=O)[C@@H](N)CS)C(=O)O | PPO3 (Agaricus bisporus, UniProt C7FF04) | enzyme activity, inhibitor | – | – | 39.6
CCOc1ccc2ccccc2c1/C=C\c1nc(O)c([N+](=O)[O-])c(=O)[nH]1 | Prostatic acid phosphatase (ACP3, Homo sapiens, UniProt P15309) | enzyme activity, inhibitor | – | – | 6.9
CNC(=O)C1CCN(c2ccccc2NC(=O)c2ccc(-c3cc(O)ccc3C)c(C)n2)CC1 | Ephrin type-A receptor 5 (EPHA5, Homo sapiens, UniProt P54756) | target engagement in cells, BRET | – | – | 0.003
CN(Cc1ccccc1)CP(C)(=O)O | Urease subunit alpha (Sporosarcina pasteurii, UniProt P41020) | enzyme activity, inhibitor, indophenol colorimetric | – | 20 min, pH 7.0, 37 °C, together with: 50 mM urea | > 1000
[N-]=[N+]=NCCCCCCO[C@H]1O[C@H](CO[C@H]2O[C@H](CO)[C@@H](O)[C@H](O)[C@@H]2O)[C@@H](O)[C@H](O[C@H]2O[C@H](CO)[C@@H](O)[C@H](O)[C@@H]2O)[C@@H]1O | Concanavalin-A (Canavalia ensiformis, UniProt P02866) | cell-free assay | – | – | 2
CC[C@H](C)[C@H](NC(=O)[C@H](CCC(=O)O)NC(=O)[C@H](C)NC(=O)[C@H](CCCCN)NC(=O)[C@H](CC(C)C)NC(=O)[C@@H](NC(=O)[C@H](CCC(=O)O)NC(=O)[C@H](C)NC(=O)[C@H](CCC(=O)O)NC(=O)[C@H](CC(=O)O)NC(=O)[C@H](C)NC(C)=O)C(C)C)C(=O)N[C@H]1CSCc2cccc(c2)CSC[C@@H](C(=O)N[C@@H](CCC(N)=O)C(=O)N[C@H](C(=O)N[C@@H](CCC(N)=O)C(=O)N[C@@H](CCC(=O)O)C(=O)N[C@@H](CCC(=O)O)C(=O)N[C@@H](CC(=O)O)C(=O)N2CCC[C@H]2C(=O)N[C@@H](CC(N)=O)C(=O)NCCC(=O)N[C@@H](CCCCNC(=O)CCCC[C@@H]2SC[C@@H]3NC(=O)N[C@@H]32)C(N)=O)C(C)C)NC(=O)[C@H](C(C)C)NC(=O)[C@H](C)NC(=O)[C@H](CCCCN)NC1=O | Protein max, homodimer bound to E-box (MAX, Homo sapiens, UniProt P61244) | DNA binding, EMSA | – | together with: DNA 40 nM | 2.25 ± 1.93
CSCC[C@@H](C=O)NC(=O)[C@H](CC(C)C)NC(=O)[C@H](CC(C)C)NC(C)=O | Genome polyprotein 3C protease | enzyme activity, inhibitor, SAMDI-MS | human rhinovirus | 30 min preincubation, together with: substrate 10 µM | 2.37
Cc1cc(S(=O)(=O)Nc2ncccn2)c(F)cc1N(C)C1CCN([C@H](C)c2ccccc2)CC1 | Sodium channel protein type 9 subunit alpha (SCN9A, Homo sapiens, UniProt Q15858) | sodium current, inhibitor, automated patch clamp | – | inactivated state, Vh -60 mV | 27.7
CC(C)[C@H](NC(=O)c1ccc(CNc2nc3c(c(=O)[nH]2)CCC3)cc1)C(=O)NC1COC1 | MMP14 | enzyme activity, inhibitor | – | – | > 5
CC[C@H](C)[C@H](NC(=O)[C@H](Cc1c[nH]cn1)NC(=O)[C@H](Cc1ccc(O)cc1)NC(=O)[C@H](CCC(N)=O)NC(=O)[C@H](CC(N)=O)NC(=O)[C@H](CO)NC(=O)[C@H](CCC(=O)O)NC(=O)[C@H](CO)NC(=O)[C@H](CCC(N)=O)NC(=O)[C@H](CO)NC(=O)[C@H](CCCNC(=N)N)NC(=O)[C@H](CC(N)=O)NC(=O)[C@H](Cc1c[nH]cn1)NC(C)=O)C(=O)N[C@@H](CO)C(=O)N[C@@H](CCC(N)=O)C(=O)N1CCC[C@H]1C(=O)N[C@@H](CO)C(=O)N[C@@H](CC(C)C)C(=O)N[C@@H](CC(=O)O)C(=O)N[C@@H](CO)C(=O)N[C@@H](CC(C)C)C(=O)N[C@@H](Cc1c[nH]cn1)C(=O)N[C@@H](CO)C(=O)N[C@H](C(=O)N[C@@H](CC(C)C)C(=O)N[C@@H](CO)C(=O)N[C@@H](CCSC)C(=O)N1CCC[C@H]1C(=O)N1CCC[C@H]1C(=O)N[C@@H](CC(C)C)C(=O)N[C@@H](CCCNC(=N)N)C(=O)N[C@@H](CC(=O)O)C(=O)N[C@@H](CCCNC(=N)N)C(=O)N[C@@H](CC(N)=O)C(=O)N[C@@H](CC(C)C)C(=O)N1CCC[C@H]1C(=O)N[C@@H](C)C(=O)N[C@@H](CO)C(=O)N[C@@H](Cc1ccccc1)C(=O)N[C@@H](Cc1ccccc1)C(=O)N[C@@H](CCCNC(=N)N)C(=O)N[C@@H](CO)C(=O)N1CCC[C@H]1C(N)=O)[C@@H](C)O | Transcriptional enhancer factor TEF-3 (TEAD4, Homo sapiens, UniProt Q15561) | protein-protein interaction, inhibitor, TR-FRET | – | – | 107
CC[C@H](C)[C@@H]1NC(=O)[C@H](Cc2ccccc2)NC(=O)[C@H](CC(=O)O)NC(=O)[C@@H](NC(C)=O)CSC(=O)[C@H](CCSC)NC1=O | agrC | – | – | – | > 1
CC(Cc1ccccc1Sc1ccccc1)N(C)C (centres unmarked) | SLC6A2 | transporter uptake, inhibitor, radiometric | – | – | 0.615
OC(COCc1ccccc1Cl)CN1CC=C(c2c[nH]c3ccccc23)CC1 (racemic) | SLC6A2 | transporter uptake, inhibitor, radiometric | – | – | > 10

A few entries again:
Structure (SMILES) | target | assay | system | setting | IC50 [µM]
O=C(Nc1ccccc1)c1ccccc1O | Histone deacetylase 4 (HDAC4, Homo sapiens, UniProt P56524) | enzyme activity, inhibitor, fluorescence | – | – | > 10
CC(C)C[C@H](NC(=O)[C@H](CC(N)=O)NC(=O)[C@H](CCCNC(=N)N)NC(=O)[C@@H](N)CS)C(=O)O | PPO3 (Agaricus bisporus, UniProt C7FF04) | enzyme activity, inhibitor | – | – | 39.6
CCOc1ccc2ccccc2c1/C=C\c1nc(O)c([N+](=O)[O-])c(=O)[nH]1 | Prostatic acid phosphatase (ACP3, Homo sapiens, UniProt P15309) | enzyme activity, inhibitor | – | – | 6.9
CNC(=O)C1CCN(c2ccccc2NC(=O)c2ccc(-c3cc(O)ccc3C)c(C)n2)CC1 | Ephrin type-A receptor 5 (EPHA5, Homo sapiens, UniProt P54756) | target engagement in cells, BRET | – | – | 0.003
CN(Cc1ccccc1)CP(C)(=O)O | Urease subunit alpha (Sporosarcina pasteurii, UniProt P41020) | enzyme activity, inhibitor, indophenol colorimetric | – | 20 min, pH 7.0, 37 °C, together with: 50 mM urea | > 1000
[N-]=[N+]=NCCCCCCO[C@H]1O[C@H](CO[C@H]2O[C@H](CO)[C@@H](O)[C@H](O)[C@@H]2O)[C@@H](O)[C@H](O[C@H]2O[C@H](CO)[C@@H](O)[C@H](O)[C@@H]2O)[C@@H]1O | Concanavalin-A (Canavalia ensiformis, UniProt P02866) | cell-free assay | – | – | 2
